Assay results gathered from unrelated publications.
Protocols differ between the studies behind these lines. Several values in a cell are separate wells, animals, samples, runs or records. ± gives the spread as reported.

Cc1nn(-c2nc3c(F)cc(F)cc3s2)c(O)c1C(c1ccc(C(F)(F)F)cc1)c1c(C)nn(-c2nc3c(F)cc(F)cc3s2)c1O — phospho-IRF3 to IRF3 ratio (THP1-Dual; western blot; 40 µM, with: HT-DNA; relative to: DMSO): 0.084 and 0.117 and 0.145
C=CC(C1=CC(=O)C(OC)=CC1=O)c1ccc(O)cc1 (stereo not shown) — activity score (human iPSC-derived cardiomyocytes; MyBP-C/MYH ratio, plate-normalised SD score; concentration not given, primary screen; direction not given): 3
NCCCOc1cc(NC(=O)c2cc(OCCN)cc(C(=O)Nc3cc(OCCCN)c4ccccc4n3)n2)nc2ccccc12 — selectivity ratio (U2OS; cell viability, CellTiter-Glo; 72 h; relative to: IC50 U2OS over WI-38): 0.8
Cn1c(Nc2nc3ccc(C(F)(F)F)cc3s2)nc2cc(C(=O)NCCOCCO)ccc21 — fold change (SH-SY5Y; RNA-seq, refers to: SPHK1 mRNA; 5 µM, 5 h; relative to: untreated cells): 2.53
O=C(/C=C/C=C/C=C/C1CCCCC1)NC1=C[C@@](O)(/C=C/C=C/C=C/C(=O)NC2=C(O)CCC2=O)[C@@H]2O[C@@H]2C1=O — GI50 (NCI-H2347; cell growth, CellTiter-Glo; 78 h): 12.2 µM
COc1cc2nc(N3CCN(C(=O)c4ccco4)CC3)nc(N)c2cc1OC — activity score (human iPSC-derived cardiomyocytes; MyBP-C/MYH ratio, plate-normalised SD score; concentration not given, primary screen; direction not given): 4.4
COc1cnc2cccc(N3CCc4c(cc(Cn5ccnc5C)cc4-c4cn(C)nc4C(F)(F)F)C3=O)c2c1 — EC50 (NCI-H929; cell growth, inhibitor; 120 h): > 30 µM
Cn1cc(Nc2nccc(-c3ccc4c(c3)CN(C3COC3)CC[C@H]4NC(=O)c3cn(C(C)(C)C)nn3)n2)cn1 — pathway activation z-score (mouse splenic B cells; refers to: PI3K/AKT signalling; 30 mg/kg, IgD-activated in vivo; relative to: vehicle, direction not given): -1.28
CCn1cc(-c2cc(Cn3ccoc3=N)cc3c2CCN([C@@H](C)c2cc(OC)ccn2)C3=O)c(C(F)(F)F)n1 — EC50 (EBC-1; cell growth, inhibitor; 120 h): > 30 µM
CCCc1cc(=O)nc(SCCCC(=O)Nc2ccc(F)cc2)[nH]1 — inhibition (cells, COS-1, expressing proMMP-9; cell migration, 2D collagen dot migration; 50 µM, 18 h): 68 ± 3%
Cc1ccccc1OCCn1cnc2cc([N+](=O)[O-])ccc2c1=O — efficacy (C127 LDR GFP reporter cells; silenced GFP reporter induction, activator, high-content imaging; retest, two-run mean): 24%
CCNC(=O)c1noc(-c2cc(C(C)C)c(O)cc2O)c1-c1ccc(CN2CCOCC2)cc1 — activity score (human iPSC-derived cardiomyocytes; MyBP-C/MYH ratio, plate-normalised SD score; concentration not given, primary screen; direction not given): 3.7
C=CC1=C(C)c2cc3[n-]c(cc4nc(cc5[n-]c(cc1n2)c(C)c5C=C)C(C)=C4CCC(=O)O)c(CCC(=O)O)c3C.[Zn+2] — fold change (SH-SY5Y; RNA-seq, refers to: FOSL2 mRNA; 5 µM, 5 h; relative to: untreated cells): 1.58
C[C@]12CC[C@@H]3c4ccc(O)cc4C[C@@H](CCCCCCCCC[S+]([O-])CCCC(F)(F)C(F)(F)F)[C@H]3[C@@H]1CC[C@@H]2O (stereo partly shown) — activity score (human iPSC-derived cardiomyocytes; MyBP-C/MYH ratio, plate-normalised SD score; concentration not given, primary screen; direction not given): 3.5
Cn1cc(-c2ccc(-c3cncc(Cl)c3N3CCC4(CCNC4=O)CC3)cc2)cn1 — fold change in expression (COLO 205; microarray, refers to: NFE2L2; concentration not given, 6 h, gene set NRF2; relative to: untreated cells): -1.16
CC(Cc1cccc(C(F)(F)F)c1)NCCOC(=O)c1ccccc1 (stereo not shown) — activity score (human iPSC-derived cardiomyocytes; MyBP-C/MYH ratio, plate-normalised SD score; concentration not given, primary screen; direction not given): 5
CCOC(=O)c1ccc(NC2CCCCC2)c(N)c1 — EC50 (BJeLR; protection from ferroptosis, PrestoBlue; 24 h, with: erastin 10 µM): 0.076 µM
COc1ccc2[nH]c([S+]([O-])Cc3ncc(C)c(OC)c3C)nc2n1 (stereo not shown) — activity score (human iPSC-derived cardiomyocytes; MyBP-C/MYH ratio, plate-normalised SD score; concentration not given, primary screen; direction not given): -5.4
CCn1cc(-c2cc(Cn3ccnc3)cc3c2CCN([C@H](c2cc(OC)ccn2)C2CC2)C3=O)c(C(F)(F)F)n1 — EC50 (NCI-H929; cell growth, inhibitor; 120 h): > 30 µM

A few entries again:
COc1ccc2[nH]c([S+]([O-])Cc3ncc(C)c(OC)c3C)nc2n1 (stereo not shown) — activity score (human iPSC-derived cardiomyocytes; MyBP-C/MYH ratio, plate-normalised SD score; concentration not given, primary screen; direction not given): -5.4
CCn1cc(-c2cc(Cn3ccnc3)cc3c2CCN([C@H](c2cc(OC)ccn2)C2CC2)C3=O)c(C(F)(F)F)n1 — EC50 (NCI-H929; cell growth, inhibitor; 120 h): > 30 µM
